Measured values gathered from unrelated publications.
Parts stem from different laboratories: compare values within a part only. Several values in a cell are separate wells, animals, samples, runs or records.
UniProt P28223, sequence (whole entry, looked up): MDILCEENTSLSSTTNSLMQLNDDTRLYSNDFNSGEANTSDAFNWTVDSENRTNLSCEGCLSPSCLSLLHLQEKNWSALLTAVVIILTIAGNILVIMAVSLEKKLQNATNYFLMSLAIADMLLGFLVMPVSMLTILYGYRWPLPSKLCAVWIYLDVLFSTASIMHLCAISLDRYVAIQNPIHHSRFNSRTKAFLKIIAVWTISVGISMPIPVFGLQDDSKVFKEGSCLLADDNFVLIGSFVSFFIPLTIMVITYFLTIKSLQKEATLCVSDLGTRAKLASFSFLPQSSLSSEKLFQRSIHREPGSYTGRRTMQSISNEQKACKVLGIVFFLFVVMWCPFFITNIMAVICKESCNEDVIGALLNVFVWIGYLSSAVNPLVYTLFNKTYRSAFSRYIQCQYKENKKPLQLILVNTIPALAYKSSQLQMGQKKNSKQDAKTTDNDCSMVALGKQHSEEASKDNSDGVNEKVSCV
UniProt P9WI81, sequence (whole entry, looked up): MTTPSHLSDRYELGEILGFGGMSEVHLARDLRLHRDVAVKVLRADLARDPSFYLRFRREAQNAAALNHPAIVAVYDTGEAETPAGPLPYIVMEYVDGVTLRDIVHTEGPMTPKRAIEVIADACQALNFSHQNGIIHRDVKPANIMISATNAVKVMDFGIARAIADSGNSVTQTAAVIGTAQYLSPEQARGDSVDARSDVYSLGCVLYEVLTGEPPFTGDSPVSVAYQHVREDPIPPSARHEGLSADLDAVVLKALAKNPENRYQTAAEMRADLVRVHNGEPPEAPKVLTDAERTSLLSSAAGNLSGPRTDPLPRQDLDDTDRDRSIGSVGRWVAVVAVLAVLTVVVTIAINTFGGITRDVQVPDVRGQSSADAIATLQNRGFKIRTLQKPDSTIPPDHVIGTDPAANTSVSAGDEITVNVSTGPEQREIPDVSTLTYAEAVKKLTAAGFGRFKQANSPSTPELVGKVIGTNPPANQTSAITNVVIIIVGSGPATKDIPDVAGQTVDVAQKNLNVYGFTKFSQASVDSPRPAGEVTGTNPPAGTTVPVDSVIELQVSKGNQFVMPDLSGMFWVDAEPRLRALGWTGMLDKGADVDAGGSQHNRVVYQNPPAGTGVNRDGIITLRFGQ

Set 1
Compound: CC(C)S(=O)(=O)c1cc2c(Nc3ccc4sc(C5CCCC5)nc4c3)ccnc2cc1OCCO
Cell line: HT-29
Observed: necroptosis
Technique: CCK-8
Together with: TNF-α, Smac mimetic, z-VAD
Quantity: cell survival
0.00457 µM: 24.3% and 25.2% and 24.2%
0.37 µM: 89.6% and 84.1% and 88%
0.041 µM: 33% and 31.7% and 30.4%
3.333 µM: 98.1% and 93.1% and 92%

Set 2
Target: Beta-1 adrenergic receptor (ADRB1, Homo sapiens, UniProt P08588)
UniProt P08588, sequence (whole entry, looked up): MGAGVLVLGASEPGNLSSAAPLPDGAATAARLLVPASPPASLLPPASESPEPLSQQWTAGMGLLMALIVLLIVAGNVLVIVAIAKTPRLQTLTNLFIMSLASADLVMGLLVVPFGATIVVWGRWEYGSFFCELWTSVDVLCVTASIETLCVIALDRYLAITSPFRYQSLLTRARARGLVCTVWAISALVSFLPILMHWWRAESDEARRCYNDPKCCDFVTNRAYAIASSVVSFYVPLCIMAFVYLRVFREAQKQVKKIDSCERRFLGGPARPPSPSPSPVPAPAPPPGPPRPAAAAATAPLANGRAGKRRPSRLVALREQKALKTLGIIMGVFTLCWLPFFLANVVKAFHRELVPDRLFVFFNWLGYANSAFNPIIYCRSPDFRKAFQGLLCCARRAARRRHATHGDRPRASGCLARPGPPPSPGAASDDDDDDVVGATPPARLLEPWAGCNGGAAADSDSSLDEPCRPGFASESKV
Mode: agonist
Quantity: Emax
CN1C[C@H](C(=O)N[C@]2(C)O[C@@]3(O)[C@@H]4CCCN4C(=O)[C@H](Cc4ccccc4)N3C2=O)C[C@@H]2c3cccc4[nH]cc(c34)C[C@H]21: 64.8%
CC(C)(C)NCC(O)c1cc(Br)c(N)c(Br)c1 (stereo not drawn): 99.8%
CC(C)(C)NCC(O)c1cc(Cl)c(N)c(Cl)c1 (stereo not drawn): 85.7%
CC(CCc1ccc(O)cc1)NCC(O)c1ccc(O)cc1 (stereo not drawn): 44.1%
CN(c1nc2ccccc2s1)C1CCN(C[C@H](O)COc2ccc(F)c(F)c2)CC1: 52%
CC(C)(C)NC[C@H](O)c1ccc(O)cc1Cl: 87%

Set 3
Cell line: mouse MPNST tumor cells
Technique: high-content immunofluorescence imaging
Measured: nuclear SOX9
Concentration: 10 µM
Time: 12 h
Notes: mean of 2 replicates
Reference: DMSO control
Reading: higher = more nuclear SOX9
Quantity: nuclear SOX9 intensity
C[N+](C)(C)CCCCCCCCCC[N+](C)(C)C: 86.1 % of DMSO
CCCCCOc1c(OC)ccc2cc(C(=O)NCc3ccc4c(c3)OCO4)c(=O)[nH]c12: 88.3 % of DMSO
NCCc1ccccn1: 98.3 % of DMSO
C[C@H](N)[C@H](O)c1ccc(O)c(O)c1: 89.5 % of DMSO
CC(C)(O)C(=O)Nc1ccc([N+](=O)[O-])c(C(F)(F)F)c1: 105 % of DMSO
N#Cc1c(N)nc(SCC(N)=O)c(C#N)c1-c1ccc(OCC2CC2)cc1: 115 % of DMSO
CCCN(CCC)C1CCc2ccc(O)cc2C1 (stereo not drawn): 107 % of DMSO

Mixed results
CC(C)(O)c1cncc(-c2nc3ccc(F)cc3n2C2CC2)c1 — inhibition (5-hydroxytryptamine receptor 2A (HTR2A, Homo sapiens, UniProt P28223); binding, radioligand binding; 10 µM): -0.31%
CNC(=O)c1cc(C(=O)NC2CC2)cn(Cc2ccccc2)c1=O — viability (normal-adjacent epithelium patient-derived organoids sample F; CellTiter-Glo; 1 µM; reference: DMSO): 70.7%
CCCOc1ccc([C@@H]2[C@@H](C(=O)O)[C@H](c3ccc4c(c3)OCO4)CN2CC(=O)Nc2c(CC)cccc2CC)cc1 — remaining binding (Serine/threonine-protein kinase PknB (pknB, Mycobacterium tuberculosis, UniProt P9WI81); cell-free assay, competition with immobilised ligand; 1 µM): 98%
CN[C@@H]1C[C@H]2O[C@@](C)([C@@H]1OC)n1c3ccccc3c3c4c(c5c6ccccc6n2c5c31)C(=O)NC4 — viability (normal-adjacent epithelium patient-derived organoids sample F; CellTiter-Glo; 1 µM; reference: DMSO): 0.6%

For quick reference, copied from above (mixed results):
CNC(=O)c1cc(C(=O)NC2CC2)cn(Cc2ccccc2)c1=O — viability (normal-adjacent epithelium patient-derived organoids sample F; CellTiter-Glo; 1 µM; reference: DMSO): 70.7%
